Measured values of several laboratories.
Every numbered part comes from another study and shows a few of its results, in no order. Positions count from the first letter of the parent shown.

Block 1
Target: CCNA1, cyclin fold, Cln2 fusion (human)
Technique: yeast growth competition, sequencing
Sample: yeast
Setting: weak parent motif
Baseline: not given
Direction: higher = stronger binding
Starting sequence: WEE1 docking peptide (human); CTLRQKLIFSPCS
Variant | normalised enrichment score
CTLRQKLIFSACS [P11A] | -0.0304
CTLRQKLIASPCS [F9A] | -0.256
ATLRQKLIFSPCS [C1A] | 0.0165
CTLRQKLAFSPCS [I8A] | -0.0715
CALRQKLIFSPCS [T2A] | -0.196
CTLRQKLIFSPAS [C12A] | -0.211
CTLRQKLIFAPCS [S10A] | 0.0163

Block 2
Target: ATF2, bZIP domain (human)
Technique: DHFR protein complementation
Sample: yeast
Setting: single substitutions, most at no-binding floor
Baseline: wild-type JUN-FOS pair
Direction: higher = stronger binding
Starting sequence: JUN, bZIP domain (human); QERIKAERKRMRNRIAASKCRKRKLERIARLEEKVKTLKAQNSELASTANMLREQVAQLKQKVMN; partner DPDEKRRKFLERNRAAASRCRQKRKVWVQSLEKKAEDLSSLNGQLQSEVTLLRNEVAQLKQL
Variant | binding fitness
Q55G | -1.44 natural log
A49Q | -1.52 natural log
K39D | -1.46 natural log
E33W | -1.31 natural log
A46V | -1.33 natural log
S43L | -1.28 natural log
L45I | -1.55 natural log
R53L | -1.57 natural log
A49P | -1.5 natural log
K34G | -1.43 natural log
K39Q | -1.24 natural log
V35M | -1.32 natural log
R53I | -1.52 natural log
T37A | -1.38 natural log
S47M | -1.29 natural log
A29Y | -1.37 natural log
I28Y | -1.36 natural log
R30P | -1.4 natural log
T37K | -1.37 natural log
N42I | -1.46 natural log
Q41V | -1.38 natural log
T37F | -1.61 natural log
A29M | -1.47 natural log
A57W | -1.46 natural log
A46S | -1.42 natural log

Block 3
Target: Ras GTPase-activating protein-binding protein 1, full length (G3BP1, Homo sapiens, UniProt Q13283)
UniProt Q13283, sequence (whole entry, looked up): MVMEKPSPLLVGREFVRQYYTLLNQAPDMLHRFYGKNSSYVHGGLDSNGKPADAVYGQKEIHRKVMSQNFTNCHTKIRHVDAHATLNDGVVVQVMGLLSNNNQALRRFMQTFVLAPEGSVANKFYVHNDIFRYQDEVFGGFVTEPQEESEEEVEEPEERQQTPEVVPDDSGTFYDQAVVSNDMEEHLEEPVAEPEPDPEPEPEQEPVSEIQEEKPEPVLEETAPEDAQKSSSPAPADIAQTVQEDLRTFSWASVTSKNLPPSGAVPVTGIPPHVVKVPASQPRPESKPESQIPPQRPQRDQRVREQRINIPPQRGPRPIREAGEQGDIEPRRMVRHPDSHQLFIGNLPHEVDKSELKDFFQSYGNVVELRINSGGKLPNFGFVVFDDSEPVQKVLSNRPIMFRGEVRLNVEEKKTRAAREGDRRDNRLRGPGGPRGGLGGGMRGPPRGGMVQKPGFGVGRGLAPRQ
Technique: RNA Bind-n-Seq
Molecule type: RNA
Sample: in vitro
Tested at: 200 nM
Setting: whole 134-nt RNA, ends assumed
Added: 150 mM KCl
Baseline: input library
Direction: higher = stronger binding
Oligonucleotide | log2 enrichment
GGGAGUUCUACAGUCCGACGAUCUCCUGUGCUACACAUCGUAUGUACCGAAUCGGGAAAGGGAAAAAAAGGGAAAAAAAGGGAAAGUAUUAUGUUACGCCGUUCGGAUCUGCAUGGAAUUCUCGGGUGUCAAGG | -0.421
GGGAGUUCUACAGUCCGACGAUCCUCAAGUCCUGUGCUACACAUCGUAUGUACCGAAUCGGGUUUGGGUGGGUGGGAAAGUAUUAUGUUACGCCGUUCGGAUCUGCACUUCCAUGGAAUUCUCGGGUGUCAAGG | 1.33
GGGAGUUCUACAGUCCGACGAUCGUCCUGUGCUACACAUCGUAUGUACCGAAUCGGGUUUUUUUGGGAGGGAAAAAAAGGGAAAGUAUUAUGUUACGCCGUUCGGAUCUGCACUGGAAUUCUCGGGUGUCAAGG | -0.326
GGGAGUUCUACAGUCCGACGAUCUUCAAAGCGUUCGAAUGAGGAGACUGAUGACUAUGGGAAGGCGCAGGUAGCCAAAAGCAGCAGCAAGGAAUCCAGGUCAUCCAAGCUCCAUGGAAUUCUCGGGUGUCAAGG | -1.79
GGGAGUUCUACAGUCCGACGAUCCACAGACAACACGCACCCACACAGACACAGAGGGAAGGGGUUGGGAUGGGGGCAGGGUGCACAGCAGGGCGGGGUAGGACCCCAGCCCCUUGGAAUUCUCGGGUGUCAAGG | 1.75
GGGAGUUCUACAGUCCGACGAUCCUGUGCUACACAUCGUAUGUACCGAAUCAAAUUUUUUUAAAUUUUUUUAAACCCCCCCAAAAAAGUAUUAUGUUACGCCGUUCGGAUCUGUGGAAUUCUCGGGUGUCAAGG | -0.207
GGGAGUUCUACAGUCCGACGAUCUGGGAGGUGGAUUUUGUUUAUUUUUUUAGCUCAUUUCCAGGGGUGGGAAUUUUUUUUUAAUCUGUGUCAUGAAUAAAGUUGUUUUUGAAAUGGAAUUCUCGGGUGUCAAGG | 0.499
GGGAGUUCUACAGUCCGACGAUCUAACUUUAGAGGAGGAUCUGAUGGAUAUAGCAGUGGACGUGGAUUUGGGGAUGGCUAUAAUGGGUAUGGAGGAGGACCUGGAGGUGGCAAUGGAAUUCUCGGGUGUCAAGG | 0.479
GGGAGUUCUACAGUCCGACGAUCAGUCCUGUGCUACACAUCGUAUGUACCGAAUCGGGAAAAAGGAAAAAGGAAAAAGGGAAAGUAUUAUGUUACGCCGUUCGGAUCUGCACUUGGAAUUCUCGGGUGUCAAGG | -0.857
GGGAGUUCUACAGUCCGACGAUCCCUCAGUGUCAUUUAUGAAAAGAGGGGACCAGAAGCCAAAGACUUAGUAUAUUUUCUUUUCCUCUGUCCCUUCCCCCAUAAGCCUCCAUUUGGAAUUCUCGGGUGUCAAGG | -0.0622
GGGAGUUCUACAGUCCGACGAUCUCAAGUCCUGUGCUACACAUCGUAUGUACCGAAUCGGAAAGGGGAAAGGAAAGGGAAAGUAUUAUGUUACGCCGUUCGGAUCUGCACUUCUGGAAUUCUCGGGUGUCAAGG | -1.14
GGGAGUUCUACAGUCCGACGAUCCAAGUCCUGUGCUACACAUCGUAUGUACCGAAUCGGUUUUUGGAAAAAGGAAAGGAAAGUAUUAUGUUACGCCGUUCGGAUCUGCACUUCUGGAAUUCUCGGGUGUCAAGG | -0.935
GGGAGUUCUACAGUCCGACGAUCGGCACCCUUUGAAGGGGAGGAUGAAGAUGAACUCUUCCAAUCCAUCAUGGAACACAACGUAGCCUAUCCCAAGUCUAUGUCCAAGGAAGCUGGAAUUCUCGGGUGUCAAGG | 0.203
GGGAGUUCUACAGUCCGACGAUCUCCUGUGCUACACAUCGUAUGUACCGAAUCGGUUUUUUGGGUUUUUUGGGGUUUUUUGGAAAGUAUUAUGUUACGCCGUUCGGAUCUGCAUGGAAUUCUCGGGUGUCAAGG | -0.525

Block 4
Target: RNA binding protein fox-1 homolog 2, RRM domain, GST-SBP tag (RBFOX2, Homo sapiens, UniProt O43251-10, residues 100-194)
Technique: RNA Bind-n-Seq
Molecule type: RNA
Sample: in vitro
Tested at: 365 nM
Setting: natural RNA segment, single round, ends assumed
Baseline: no-protein control
Direction: higher = stronger binding
Construct (chain): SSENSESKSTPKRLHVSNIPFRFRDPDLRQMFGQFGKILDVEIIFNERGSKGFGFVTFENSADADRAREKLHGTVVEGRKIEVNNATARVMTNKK
Oligonucleotide | RBNS enrichment (R)
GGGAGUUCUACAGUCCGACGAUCCACUAUUCUGAGGGAAAAUCUGACACCUAAGAAAUUUACUGUGAAAAAGCAUUUUAAAAAGAAAAGGUUUUAGAAUAUGAUCUAUUUUAUGCAUAUUGUUUAUAAAGACAUGGAAUUCUCGGGUGCCAA | 0.378
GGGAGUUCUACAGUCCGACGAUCCUCCUCUCUUCCCCCAUGGUAGGAACAUAGCGUGUUUAUAUUUUAUGGCCAAACUAUUUUGAAUUUUGUUGUCUGGCCCUCAGUGCCCUGCCCUCUCCCUUUGCAGGACCUGGAAUUCUCGGGUGCCAA | 1.66
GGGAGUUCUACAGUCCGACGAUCCGUAUGUAAGUAAUCUGGGGAAGAAGCAAAGAUCUGUUUCAUUCUUAGCCUCAGGCCUCAUGAGGGUCUCCACAGGGCCGGAGCUCAGGUUACACCACUCCUUCGUCCUUUGGAAUUCUCGGGUGCCAA | 0.243
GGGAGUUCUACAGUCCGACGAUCAUCAGAGGCAGGCUUGUCUUUGUAGAGAAUUACAAGCCUGCUUGAGCUACAGAGUGUGAUCCUGUCAAAAUCCCCUGAGAAAUAUUCUUAGGGGCUCACAACCAAGGUCCUGGAAUUCUCGGGUGCCAA | 0.272
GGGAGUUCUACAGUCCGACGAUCAUUUGGGAGGUAGAGGCAGUCAGAUCUCUGUGAGUUCAAGGCCAGCCUGGUCUACAGAGUAAGUUCUAGGACCAAACCCAAAAAAUAAAGCAAAAACAAAAGGAGGUAUUUGGAAUUCUCGGGUGCCAA | 0.543
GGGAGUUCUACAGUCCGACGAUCUUGGGCCCAGGCUUCCUCCCCUCCAAGGUGAAACACUGCAGUCCCGGUGUGGUGGCUCCCCAUGCAGGACGGGCCAGGCUGGGAGUGCCGCCUUCCUGUGCCAAAUUCAGUGGAAUUCUCGGGUGCCAA | 0.301
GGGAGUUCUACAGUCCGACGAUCCUAGCAAGCGACCGCUGUUGGCCGAGCUUCACUCAUGACUGCAGCGUGCAUGUAUCUCUUCACCAUGUCUUCUCUCACCUUCACUAAGGAGUCACCAGAUCAUCUGGCUCUGGAAUUCUCGGGUGCCAA | 2.29
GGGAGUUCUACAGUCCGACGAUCGCAGAAGCAUAGAUUUAAUUGCAUCUUUAUUUUGAAAAACAAAUGAAAAUUGAUGGGGUUUAAAGCUACAGAGGCACUGACCUUUUUCUAGUUAUUGUAUUGCUACAAUUUGGAAUUCUCGGGUGCCAA | 0.657
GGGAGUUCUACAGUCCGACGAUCCGGCGGUGGUGCAGAAGAGAGCCAGUGGCCAGUGACCACACAGCUCCUCCAUGCCUGACCAACAGGCCCAGCUUUCCCUGCCAGGCCCUUUGCACUGAGGACACAGAUCCUGGAAUUCUCGGGUGCCAA | 0.195
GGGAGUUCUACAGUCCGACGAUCAUCAGUGUUUUCCGUGUGAAUUUCCAACCUUGCACCCCGUUCCUUGUCCUUACUCUUGACUCCAUCCAGAAAAGAACCAGCAUCUGCAAACGCCAUGGGUGCCGUCAGCGUGGAAUUCUCGGGUGCCAA | 0.592
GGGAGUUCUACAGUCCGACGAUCCCCUCAAAUGAGAAGGCCUUGGGAGAAGGCCUCAUCUCUGGCUGUUUCAUGAGCAACUCAUUCCUAGAGUUCAUUGUUUGCAUGGGUUUCUCACAAGCGUCCUUCCUCAUUGGAAUUCUCGGGUGCCAA | 0.77
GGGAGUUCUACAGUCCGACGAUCGCUUCAAUGUGCAAUUCCUUUCUGCUUCCAAAGGUAUGCCUGCUUUGCUUUUGACUCUAAGCAUAACAUGACAAACCUCUAAGGAUGUAAUUAAAUUUAUUUUAAAACUUUGGAAUUCUCGGGUGCCAA | 2.8

Block 5
Target: Sal-like protein 4, full length isoform A (SALL4, Homo sapiens, UniProt Q9UJQ4, residues 1-1053)
UniProt Q9UJQ4, sequence (whole entry, looked up): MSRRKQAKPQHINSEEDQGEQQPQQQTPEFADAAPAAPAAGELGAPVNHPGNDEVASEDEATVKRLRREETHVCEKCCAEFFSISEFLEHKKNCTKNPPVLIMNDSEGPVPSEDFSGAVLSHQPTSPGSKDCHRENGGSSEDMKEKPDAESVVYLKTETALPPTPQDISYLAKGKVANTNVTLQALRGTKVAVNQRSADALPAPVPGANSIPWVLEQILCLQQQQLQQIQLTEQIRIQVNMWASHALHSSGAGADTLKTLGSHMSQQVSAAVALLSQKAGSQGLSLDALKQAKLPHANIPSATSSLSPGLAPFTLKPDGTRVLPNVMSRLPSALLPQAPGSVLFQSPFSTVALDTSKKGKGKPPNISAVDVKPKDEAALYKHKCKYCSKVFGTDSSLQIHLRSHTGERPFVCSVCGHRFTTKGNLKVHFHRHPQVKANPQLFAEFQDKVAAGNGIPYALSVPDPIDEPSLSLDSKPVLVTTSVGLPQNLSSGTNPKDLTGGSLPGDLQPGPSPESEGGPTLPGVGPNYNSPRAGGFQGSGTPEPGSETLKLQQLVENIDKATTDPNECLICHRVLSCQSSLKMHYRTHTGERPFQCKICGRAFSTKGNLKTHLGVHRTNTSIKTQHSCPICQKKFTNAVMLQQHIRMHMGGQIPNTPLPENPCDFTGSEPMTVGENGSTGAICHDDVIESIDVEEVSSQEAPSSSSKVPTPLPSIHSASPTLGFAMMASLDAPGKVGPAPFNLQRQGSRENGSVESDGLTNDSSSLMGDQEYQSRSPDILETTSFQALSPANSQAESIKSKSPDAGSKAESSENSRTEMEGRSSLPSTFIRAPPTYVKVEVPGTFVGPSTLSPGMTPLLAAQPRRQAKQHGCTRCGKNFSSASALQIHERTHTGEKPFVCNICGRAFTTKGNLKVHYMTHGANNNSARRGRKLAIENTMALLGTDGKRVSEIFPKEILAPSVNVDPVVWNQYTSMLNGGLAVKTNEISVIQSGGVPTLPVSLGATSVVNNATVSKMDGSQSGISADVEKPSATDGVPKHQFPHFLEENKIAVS
Technique: universal PBM
Molecule type: double-stranded DNA, one strand shown
Sample: in vitro
Tested at: 600 nM
Setting: 8-mer, flanks averaged, mean of replicates
Direction: higher = stronger binding
Oligonucleotide | E-score
AGGCCTAT | 0.0469
CCTCTCTA | -0.273
GACGCAGA | -0.189
ATGATCTG | 0.135
ATCTTGCG | 0.0662
AGGCTGAA | -0.00144
AGGTTGCA | 0.08
GATGCTGC | -0.132
CTCCCGTA | -0.137
CCACCATC | -0.23
CGGACCCG | -0.375
CCAGGCCG | -0.299
CAGTGTTA | 0.0488
CACGCAGC | -0.32
CCGTCGCG | -0.325
CCGAGCAG | -0.253
ACTTGGTC | -0.142
CATCATCA | 0.217
CACGCCGA | -0.317
ATACAGCA | 0.196
AGCTGGTA | -0.151
CATTTTGC | 0.173

Some of these lines once more (block 2):
Variant | binding fitness
T37A | -1.38 natural log
S47M | -1.29 natural log
A29Y | -1.37 natural log
I28Y | -1.36 natural log
R30P | -1.4 natural log
T37K | -1.37 natural log
N42I | -1.46 natural log
Q41V | -1.38 natural log
T37F | -1.61 natural log
A29M | -1.47 natural log
A57W | -1.46 natural log
A46S | -1.42 natural log
